Published values collected from several papers.
Lines come from different studies, so protocols differ. Numbers after ± are the reported error.

`Cc1cc(-c2nnc(N)nc2-c2ccc(F)cc2)cc(Cl)n1` has a terminal half-life of 9.28 h (human patients, plasma; oral, 75 mg capsule once daily, multiple doses, arithmetic mean).
The terminal half-life of `Cc1[nH]c(/C=C2\C(=O)Nc3ccc(F)cc32)c(C)c1C(=O)N[C@H]1CCN(C(=O)N(C)C)C1` is reported as 4.74 ± 1.44 h (human patients, plasma; oral, 100 mg single dose, with: everolimus 5 mg).
The terminal half-life of `C#C[C@]1(O)CC[C@H]2[C@@H]3CCc4cc(O)ccc4[C@H]3CC[C@@]21C` is reported as 18.4 ± 6 h (human female; oral, single dose oral contraceptive, cpd alone).
`CN(CC#N)C(=O)C[C@H](Nc1nc2ccccc2[nH]1)c1cccc(C(F)(F)F)c1` has a terminal half-life of 3.6 ± 0.03 h (human; intravenous infusion, 1.5 mg/kg, 1 mg/mL formulation).
The terminal half-life of `C[C@@]1(c2cc(NC(=O)c3ccc(C#N)cn3)ccc2F)C=CSC(N)=N1` is reported as 15.7 h (elderly humans, both sexes, plasma; oral, 30 mg single dose, mean).
For `COc1nnc2ccc(N3CCC(c4ccc(OCCN5CCN(C)C(=O)[C@H]5C)cc4)CC3)nn12`, the terminal half-life was 4.6 h (human, plasma; oral, 10 mg once daily, single dose, monotherapy).
With `CN1C(=O)[C@@H](NC(=O)c2nnc(Cc3ccccc3)[nH]2)COc2cccnc21` the terminal half-life was 9.01 h (healthy human, fasted, plasma; oral, 400 mg single dose, geometric mean).
The terminal half-life of `Cc1cc(-c2nccc3c2ccn3CC(=O)Nc2ccc(-c3cnccn3)cn2)ccn1` is reported as 10.8 h (human, plasma; oral, 7 mg single dose, geometric mean).
